{"data": "Measurements collected from several papers", "note": "Parts stem from different laboratories: compare values within a part only."}
{"data": "Set 1", "target": "Interferon regulatory factor 5, full length, phosphomimetic (IRF5, Homo sapiens, UniProt Q13568-2, residues 1-514, K96S/S451D/S453D/S456D/S462D)", "technique": "protein-binding microarray", "form": "double-stranded DNA, one strand shown", "matrix": "in vitro", "concentration": "250 nM", "notes": "60-bp whole probe", "with": "salmon DNA 0.4 mg/ml", "baseline": "random background probes", "direction": "higher = stronger binding", "all sequences stand within": "GCCTAGCAC … GTCTTGATTCGCTTGACGCTGCTG"}
{"Strand": "GATGGTCTCCTTATCCTGACGTGCTAG", "log fluorescence [z-score]": 0.0681}
{"Strand": "GACGGTATCGACGATCGGGACGTGCTA", "log fluorescence [z-score]": 1.91}
{"Strand": "ACAACTAGGGAATTTAGAAAAGTGCTA", "log fluorescence [z-score]": 0.141}
{"Strand": "GACGGTATCGGTCTAGGGACGTGCTAG", "log fluorescence [z-score]": 6.22}
{"Strand": "GACAGTCTCGGACTGGGGACGTGCTAG", "log fluorescence [z-score]": -0.348}
{"Strand": "TCATGTGTAGGTCTTAAACTGTGCTAG", "log fluorescence [z-score]": -0.502}
{"Strand": "GTAGAACTGGGGACTGGATTAGTGCTA", "log fluorescence [z-score]": -0.604}
{"Strand": "TCATTTTAAGTTCTCTGACTGTGCTAG", "log fluorescence [z-score]": 0.2}
{"data": "Set 2", "target": "Histone acetyltransferase KAT6A, both winged helices, GST fusion (KAT6A, Homo sapiens, UniProt Q92794, residues 1-181)", "technique": "protein binding microarray", "form": "double-stranded DNA, one strand shown", "matrix": "in vitro", "concentration": "not given", "notes": "8-mer, flanks averaged, mean of 2 arrays, mostly near background", "baseline": "not given", "direction": "higher = stronger binding", "Residues (chain)": "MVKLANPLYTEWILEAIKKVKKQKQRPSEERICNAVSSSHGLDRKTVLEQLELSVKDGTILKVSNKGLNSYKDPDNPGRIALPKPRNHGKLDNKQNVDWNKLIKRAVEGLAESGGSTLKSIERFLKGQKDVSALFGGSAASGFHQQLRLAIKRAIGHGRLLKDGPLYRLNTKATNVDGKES"}
{"Strand": "AGTGATAT", "E-score": -0.0245}
{"Strand": "ATCAATTA", "E-score": -0.0787}
{"Strand": "TGAACACA", "E-score": -0.0277}
{"Strand": "TGCCACAA", "E-score": -0.0618}
{"Strand": "ATCCTACC", "E-score": 0.00147}
{"Strand": "GGCACTAC", "E-score": -0.0474}
{"Strand": "CTCGAGAG", "E-score": -0.0503}
{"Strand": "CTTTGCGA", "E-score": 0.0182}
{"data": "Set 3", "target": "Replicase polyprotein 1ab, polymerase (rep, Severe acute respiratory syndrome coronavirus 2, UniProt P0DTD1)", "effect on": "enzyme activity", "mode": "inhibitor", "concentration": "20 µM"}
{"Structure (SMILES)": "O=C(c1ccc(-c2ccc(Cl)cc2)o1)N(Cc1ccccn1)c1ccc(N2CCNCC2)cc1", "inhibition": "1.38%"}
{"Structure (SMILES)": "CC(C)(O)C(Cl)(Cl)Cl", "inhibition": "16.6%"}
{"Structure (SMILES)": "C[C@@H]1O[C@@H](O[C@H]2[C@H](Oc3cc(O)c4c(c3)O[C@H](c3ccc(O)cc3)CC4=O)O[C@H](CO)[C@@H](O)[C@@H]2O)[C@H](O)[C@H](O)[C@H]1O", "inhibition": "-2.91%"}
{"Structure (SMILES)": "COc1cc2nccc(Oc3ccc(NC(=O)NC4CC4)c(Cl)c3)c2cc1C(N)=O", "inhibition": "-6.02%"}
{"Structure (SMILES)": "CCN1CCN(c2ccc(C(C)(C)NC(=O)c3cc4[nH]c5ccccc5c(=O)c4cc3F)cn2)CC1", "inhibition": "5.93%"}
{"Structure (SMILES)": "CCCN1CCC[C@@H]2Cc3nc(N)ncc3C[C@H]21", "inhibition": "-2.25%"}
{"Structure (SMILES)": "CC(C)Oc1ccc(-c2nn([C@@H](C)c3oc4ccc(F)cc4c(=O)c3-c3cccc(F)c3)c3ncnc(N)c23)cc1F", "inhibition": "1.71%"}
{"Structure (SMILES)": "COC(=O)c1ccccc1-c1c2ccc(=N)cc-2oc2cc(N)ccc12", "inhibition": "60.4%"}
{"Structure (SMILES)": "CCn1c(=O)[nH]c2cc(Cl)c(Cl)cc21", "inhibition": "-4.76%"}
{"Structure (SMILES)": "Nc1nc(Nc2ccccc2)nc2c1ncn2[C@@H]1O[C@H](CO)[C@@H](O)[C@H]1O", "inhibition": "3.88%"}
{"Structure (SMILES)": "Nc1ncnc2c1c(-c1cccc(OCc3ccccc3)c1)cn2C1CC(CN2CCCC2)C1 (stereo in doubt)", "inhibition": "-10.1%"}
{"Structure (SMILES)": "Cc1c(-c2ccc(O)cc2)n(Cc2ccc(OCCN3CCCCCC3)cc2)c2ccc(O)cc12", "inhibition": "18.6%"}
{"Structure (SMILES)": "O=C(c1ccc(Cl)cc1)N(Cc1ccccc1)C1CCCCC1", "inhibition": "0.01%"}
{"Structure (SMILES)": "NC[C@@H]1O[C@H](C23CC4CC(CC(C4)C2)C3)Cc2c1ccc(O)c2O", "inhibition": "-1.39%"}
{"Structure (SMILES)": "Brc1c(NC2=NCCN2)ccc2nccnc12", "inhibition": "0.81%"}
{"Structure (SMILES)": "CC(=O)Nc1cccc2c1c(Sc1ccc(Cl)cc1)c(C)n2CC(=O)O", "inhibition": "-1.84%"}
{"Structure (SMILES)": "C[C@]12C=CC(=O)C=C1CC[C@@H]1[C@@H]2C(=O)C[C@@]2(C)[C@H]1CC[C@]2(O)C(=O)CO", "inhibition": "1.21%"}
{"Structure (SMILES)": "CCCCCCCC/C=C\\CCCCCCCC(=O)OC(CO)CO", "inhibition": "2.19%"}
{"Structure (SMILES)": "CC(C)C[C@@H](C=O)NC(=O)[C@H](CC(C)C)NC(=O)[C@H](CC(C)C)NC(=O)OCc1ccccc1", "inhibition": "-1.34%"}
{"Structure (SMILES)": "COc1ccc(C(=O)CC2(O)C(=O)Nc3c(Cl)ccc(Cl)c32)cc1 (centres unmarked)", "inhibition": "-10%"}
{"Structure (SMILES)": "Nc1ncnc2c1ncn2[C@@H]1O[C@H](COP(=O)(O)O)[C@@H](O)[C@H]1O", "inhibition": "-12%"}
{"Structure (SMILES)": "Cc1cccc(C)c1NC(=O)C1CCCCN1C (centres unmarked)", "inhibition": "-1.32%"}
{"Structure (SMILES)": "CC(C)(C)NCC(O)COc1cccc2c1CCC(=O)N2 (centres unmarked)", "inhibition": "3.34%"}
{"Structure (SMILES)": "CNC(=O)c1cccc(NC(=O)N2CCC(Oc3ccccc3Cl)CC2)c1", "inhibition": "-2.71%"}
{"Structure (SMILES)": "NC(=O)OC[C@@H]1[C@H](NC(=O)/C(=N\\OCC(=O)O)c2csc(N)n2)C(=O)N1S(=O)(=O)O", "inhibition": "2.42%"}
{"data": "Set 4", "target": "Sal-like protein 4, full length isoform B (SALL4, Homo sapiens, UniProt Q9UJQ4-2, residues 1-616)", "technique": "universal PBM", "form": "double-stranded DNA, one strand shown", "matrix": "in vitro", "concentration": "not given", "notes": "8-mer, flanks averaged, mean of replicates", "direction": "higher = stronger binding", "Residues (chain)": "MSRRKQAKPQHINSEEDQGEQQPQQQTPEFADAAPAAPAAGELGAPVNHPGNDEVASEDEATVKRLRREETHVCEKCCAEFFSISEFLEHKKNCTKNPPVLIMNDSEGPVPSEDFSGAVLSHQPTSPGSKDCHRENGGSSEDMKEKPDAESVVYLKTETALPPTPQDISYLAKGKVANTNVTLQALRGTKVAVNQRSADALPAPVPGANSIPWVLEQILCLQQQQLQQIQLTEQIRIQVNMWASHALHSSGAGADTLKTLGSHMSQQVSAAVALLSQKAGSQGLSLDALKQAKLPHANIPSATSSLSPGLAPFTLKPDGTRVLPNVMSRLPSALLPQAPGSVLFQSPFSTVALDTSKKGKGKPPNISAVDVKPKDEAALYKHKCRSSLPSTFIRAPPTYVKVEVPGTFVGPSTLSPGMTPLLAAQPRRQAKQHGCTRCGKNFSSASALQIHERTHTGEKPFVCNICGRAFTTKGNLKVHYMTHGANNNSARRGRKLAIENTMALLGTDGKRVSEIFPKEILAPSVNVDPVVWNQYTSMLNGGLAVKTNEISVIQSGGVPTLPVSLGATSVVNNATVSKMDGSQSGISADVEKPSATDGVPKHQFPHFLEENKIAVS"}
{"Strand": "CGGACGTC", "E-score": -0.18}
{"Strand": "AACCCGGC", "E-score": -0.28}
{"Strand": "AGGGACCC", "E-score": -0.276}
{"Strand": "CTATCGTC", "E-score": -0.0592}
{"Strand": "CGTGTTAC", "E-score": 0.0433}
{"Strand": "GGGTACGA", "E-score": -0.207}
{"Strand": "ATCTTATC", "E-score": 0.226}
{"Strand": "AGGAGCCC", "E-score": -0.27}
{"data": "Single results of other studies"}
{"SMILES": "C[C@@H]1O[C@@H](OC[C@H]2O[C@@H](Oc3c(-c4ccc(O)c(O)c4)oc4cc(O)cc(O)c4c3=O)[C@H](O)[C@@H](O)[C@@H]2O)[C@H](O)[C@H](O)[C@H]1O", "target or system": "HEK-293T/ACE2", "conditions": "10 µM, 16 h", "how to read": "baseline: vehicle", "measurement": "viability", "value": "99.7%"}
{"SMILES": "CC1=C(O)C(=O)[C@@H]2O[C@@H]2C1=O", "target or system": "Replicase polyprotein 1ab, main protease (rep, Severe acute respiratory syndrome coronavirus 2, UniProt P0DTD1)", "test": "enzyme activity, inhibitor", "conditions": "20 µM, hit confirmation", "measurement": "inhibition", "value": "42%"}
{"SMILES": "COc1cc(NC(C)CCCN)c2ncccc2c1 (centres unmarked)", "target or system": "HEK-293T/ACE2", "conditions": "10 µM, 16 h", "how to read": "baseline: vehicle", "measurement": "viability", "value": "101%"}
{"SMILES": "CC(=O)Nc1ccc(O)cc1", "target or system": "HEK-293T", "test": "pseudovirus infection, FDA-approved drug library screen", "test system": "VSV pseudotyped with SARS-CoV-2 spike", "conditions": "10 µM, 16 h", "how to read": "baseline: vehicle-treated", "measurement": "GFP-positive cells", "value": "70.6%"}
{"note": "Excerpt of the above (set 3):"}
{"Structure (SMILES)": "Nc1nc(Nc2ccccc2)nc2c1ncn2[C@@H]1O[C@H](CO)[C@@H](O)[C@H]1O", "inhibition": "3.88%"}
{"Structure (SMILES)": "Nc1ncnc2c1c(-c1cccc(OCc3ccccc3)c1)cn2C1CC(CN2CCCC2)C1 (stereo in doubt)", "inhibition": "-10.1%"}
{"Structure (SMILES)": "Cc1c(-c2ccc(O)cc2)n(Cc2ccc(OCCN3CCCCCC3)cc2)c2ccc(O)cc12", "inhibition": "18.6%"}
